Assay results pooled from the literature.
Each line is one published result; not all experiments were run side by side. “And” joins repeats or separate records; there may be more than shown. Numbers after ± are the reported error.
DNA topoisomerase 4 subunit A with ParE subunit: DNA topoisomerase 4 subunit A, with ParE subunit (Escherichia coli K-12, UniProt P0AFI2)
Chain of UniProt P0AFI2 (whole entry, looked up): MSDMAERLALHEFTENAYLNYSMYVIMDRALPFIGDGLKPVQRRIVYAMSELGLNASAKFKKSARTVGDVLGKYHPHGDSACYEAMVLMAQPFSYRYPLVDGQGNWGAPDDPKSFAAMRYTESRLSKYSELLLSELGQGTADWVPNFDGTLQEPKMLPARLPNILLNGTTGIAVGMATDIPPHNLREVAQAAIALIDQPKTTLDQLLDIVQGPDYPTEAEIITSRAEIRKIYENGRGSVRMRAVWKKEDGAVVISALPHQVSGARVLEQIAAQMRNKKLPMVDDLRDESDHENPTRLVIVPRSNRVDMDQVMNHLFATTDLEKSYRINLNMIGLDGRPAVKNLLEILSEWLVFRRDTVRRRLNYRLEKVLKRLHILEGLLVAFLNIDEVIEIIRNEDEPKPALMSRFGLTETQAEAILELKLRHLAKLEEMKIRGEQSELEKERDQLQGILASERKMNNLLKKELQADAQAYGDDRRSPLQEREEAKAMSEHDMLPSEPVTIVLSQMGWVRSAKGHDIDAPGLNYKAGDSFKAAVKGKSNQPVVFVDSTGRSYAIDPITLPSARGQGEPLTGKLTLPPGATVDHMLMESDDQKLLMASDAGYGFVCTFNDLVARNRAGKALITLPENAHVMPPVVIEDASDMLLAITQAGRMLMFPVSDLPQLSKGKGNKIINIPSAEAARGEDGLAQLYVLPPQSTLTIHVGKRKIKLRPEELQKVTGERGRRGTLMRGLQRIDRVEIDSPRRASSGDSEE
BCL6: B-cell lymphoma 6 protein (BCL6, Homo sapiens, UniProt P41182)
qscR DNA-bound dimer: qscR, DNA-bound dimer (Pseudomonas aeruginosa, UniProt G3XD77)
Mogs: Mogs (Mus musculus, UniProt Q80UM7)
Chain of UniProt Q80UM7 (whole entry, looked up): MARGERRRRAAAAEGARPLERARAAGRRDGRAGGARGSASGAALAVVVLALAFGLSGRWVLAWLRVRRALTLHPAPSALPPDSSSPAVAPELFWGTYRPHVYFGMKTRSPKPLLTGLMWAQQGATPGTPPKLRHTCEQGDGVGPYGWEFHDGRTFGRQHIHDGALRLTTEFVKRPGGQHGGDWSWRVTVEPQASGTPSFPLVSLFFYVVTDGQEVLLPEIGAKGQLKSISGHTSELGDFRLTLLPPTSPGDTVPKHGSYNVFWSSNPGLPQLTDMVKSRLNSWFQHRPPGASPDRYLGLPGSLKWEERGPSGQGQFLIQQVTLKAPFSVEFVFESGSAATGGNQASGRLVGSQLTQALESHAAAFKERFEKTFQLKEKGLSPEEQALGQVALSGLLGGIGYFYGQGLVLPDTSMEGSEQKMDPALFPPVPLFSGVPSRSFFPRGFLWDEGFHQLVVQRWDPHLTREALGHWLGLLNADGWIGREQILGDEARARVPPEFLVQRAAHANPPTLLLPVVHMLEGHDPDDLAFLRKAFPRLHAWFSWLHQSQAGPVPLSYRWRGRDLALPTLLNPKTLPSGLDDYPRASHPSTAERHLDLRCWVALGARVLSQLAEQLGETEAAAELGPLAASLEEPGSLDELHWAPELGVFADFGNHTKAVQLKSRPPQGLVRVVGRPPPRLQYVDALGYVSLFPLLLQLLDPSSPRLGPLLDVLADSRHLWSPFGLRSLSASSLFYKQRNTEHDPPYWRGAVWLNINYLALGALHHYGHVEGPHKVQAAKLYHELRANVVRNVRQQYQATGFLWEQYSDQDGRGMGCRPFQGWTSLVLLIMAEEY
NR1H3: Oxysterols receptor LXR-alpha (NR1H3, Homo sapiens, UniProt Q13133)
Chain of UniProt Q13133 (whole entry, looked up): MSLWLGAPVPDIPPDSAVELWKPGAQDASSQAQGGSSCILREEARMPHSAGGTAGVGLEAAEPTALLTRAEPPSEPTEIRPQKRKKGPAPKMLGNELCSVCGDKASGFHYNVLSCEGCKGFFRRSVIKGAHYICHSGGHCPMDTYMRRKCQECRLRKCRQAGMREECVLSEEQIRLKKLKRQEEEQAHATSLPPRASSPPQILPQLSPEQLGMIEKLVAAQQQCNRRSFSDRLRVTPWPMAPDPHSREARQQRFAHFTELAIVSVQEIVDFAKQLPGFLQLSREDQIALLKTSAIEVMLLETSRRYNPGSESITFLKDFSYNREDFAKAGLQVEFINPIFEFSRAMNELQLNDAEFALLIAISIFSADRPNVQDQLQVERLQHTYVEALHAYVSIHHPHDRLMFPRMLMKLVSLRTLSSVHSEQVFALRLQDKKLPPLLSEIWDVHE
plsY: Glycerol-3-phosphate acyltransferase (plsY, Streptococcus pneumoniae, UniProt P0A4Q0)
Chain of UniProt P0A4Q0 (whole entry, looked up): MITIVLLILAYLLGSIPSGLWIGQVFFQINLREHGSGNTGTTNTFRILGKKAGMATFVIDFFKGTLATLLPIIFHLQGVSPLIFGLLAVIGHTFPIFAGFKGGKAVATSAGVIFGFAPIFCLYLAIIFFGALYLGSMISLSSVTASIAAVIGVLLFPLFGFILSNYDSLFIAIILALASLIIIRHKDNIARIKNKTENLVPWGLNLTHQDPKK
Chain of UniProt Q99572 (whole entry, unmodified, looked up): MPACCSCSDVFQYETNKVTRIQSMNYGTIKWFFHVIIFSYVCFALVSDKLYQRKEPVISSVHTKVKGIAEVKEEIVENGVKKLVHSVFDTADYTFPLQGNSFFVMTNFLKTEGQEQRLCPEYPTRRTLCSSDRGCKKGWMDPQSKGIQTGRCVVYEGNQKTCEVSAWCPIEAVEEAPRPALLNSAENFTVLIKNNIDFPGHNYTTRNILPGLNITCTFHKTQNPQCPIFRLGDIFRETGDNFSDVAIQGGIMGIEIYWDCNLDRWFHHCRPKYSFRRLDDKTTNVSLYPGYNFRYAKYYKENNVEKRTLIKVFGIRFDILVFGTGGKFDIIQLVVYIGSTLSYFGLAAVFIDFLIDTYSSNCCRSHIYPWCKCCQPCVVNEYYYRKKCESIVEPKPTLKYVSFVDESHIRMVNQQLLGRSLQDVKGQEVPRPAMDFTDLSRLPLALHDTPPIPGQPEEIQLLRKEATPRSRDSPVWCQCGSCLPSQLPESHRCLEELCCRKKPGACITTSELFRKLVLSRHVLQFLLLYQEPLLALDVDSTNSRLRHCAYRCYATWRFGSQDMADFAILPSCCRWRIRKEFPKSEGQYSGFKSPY
Chain of UniProt P11233 (whole entry, looked up): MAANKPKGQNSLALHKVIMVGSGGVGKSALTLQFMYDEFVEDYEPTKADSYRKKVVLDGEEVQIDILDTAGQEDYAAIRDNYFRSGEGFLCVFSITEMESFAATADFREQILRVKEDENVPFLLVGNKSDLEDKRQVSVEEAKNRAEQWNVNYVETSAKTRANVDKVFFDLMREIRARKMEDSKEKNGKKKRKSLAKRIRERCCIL
Chain of UniProt Q92851 (whole entry, looked up): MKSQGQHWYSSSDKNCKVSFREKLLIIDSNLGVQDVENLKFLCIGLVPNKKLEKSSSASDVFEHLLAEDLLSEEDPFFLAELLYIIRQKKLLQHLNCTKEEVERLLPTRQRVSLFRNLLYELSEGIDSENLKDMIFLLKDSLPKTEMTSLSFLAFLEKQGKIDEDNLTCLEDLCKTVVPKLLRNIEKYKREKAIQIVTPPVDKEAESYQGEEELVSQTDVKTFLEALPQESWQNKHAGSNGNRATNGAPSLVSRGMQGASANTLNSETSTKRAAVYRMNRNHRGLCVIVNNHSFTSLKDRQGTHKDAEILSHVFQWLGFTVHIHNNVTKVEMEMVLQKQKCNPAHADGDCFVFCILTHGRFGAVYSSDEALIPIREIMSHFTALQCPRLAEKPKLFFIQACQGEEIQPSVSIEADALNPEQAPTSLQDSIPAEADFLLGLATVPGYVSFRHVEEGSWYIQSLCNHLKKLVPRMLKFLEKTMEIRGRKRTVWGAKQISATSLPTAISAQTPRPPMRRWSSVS
Chain of UniProt P08588 (whole entry, looked up): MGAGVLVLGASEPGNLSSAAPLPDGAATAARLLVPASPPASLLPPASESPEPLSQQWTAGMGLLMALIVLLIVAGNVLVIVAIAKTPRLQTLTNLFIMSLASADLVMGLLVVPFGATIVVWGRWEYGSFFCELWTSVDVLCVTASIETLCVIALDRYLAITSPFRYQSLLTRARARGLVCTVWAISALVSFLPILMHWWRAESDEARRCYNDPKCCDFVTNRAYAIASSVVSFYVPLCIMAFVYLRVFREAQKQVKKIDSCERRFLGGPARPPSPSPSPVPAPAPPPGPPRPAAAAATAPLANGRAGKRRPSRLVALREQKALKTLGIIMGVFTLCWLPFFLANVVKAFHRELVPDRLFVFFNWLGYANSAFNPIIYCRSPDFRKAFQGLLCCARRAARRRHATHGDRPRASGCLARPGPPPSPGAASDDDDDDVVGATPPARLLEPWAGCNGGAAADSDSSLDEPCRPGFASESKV
Chain of UniProt P19492 (whole entry, looked up): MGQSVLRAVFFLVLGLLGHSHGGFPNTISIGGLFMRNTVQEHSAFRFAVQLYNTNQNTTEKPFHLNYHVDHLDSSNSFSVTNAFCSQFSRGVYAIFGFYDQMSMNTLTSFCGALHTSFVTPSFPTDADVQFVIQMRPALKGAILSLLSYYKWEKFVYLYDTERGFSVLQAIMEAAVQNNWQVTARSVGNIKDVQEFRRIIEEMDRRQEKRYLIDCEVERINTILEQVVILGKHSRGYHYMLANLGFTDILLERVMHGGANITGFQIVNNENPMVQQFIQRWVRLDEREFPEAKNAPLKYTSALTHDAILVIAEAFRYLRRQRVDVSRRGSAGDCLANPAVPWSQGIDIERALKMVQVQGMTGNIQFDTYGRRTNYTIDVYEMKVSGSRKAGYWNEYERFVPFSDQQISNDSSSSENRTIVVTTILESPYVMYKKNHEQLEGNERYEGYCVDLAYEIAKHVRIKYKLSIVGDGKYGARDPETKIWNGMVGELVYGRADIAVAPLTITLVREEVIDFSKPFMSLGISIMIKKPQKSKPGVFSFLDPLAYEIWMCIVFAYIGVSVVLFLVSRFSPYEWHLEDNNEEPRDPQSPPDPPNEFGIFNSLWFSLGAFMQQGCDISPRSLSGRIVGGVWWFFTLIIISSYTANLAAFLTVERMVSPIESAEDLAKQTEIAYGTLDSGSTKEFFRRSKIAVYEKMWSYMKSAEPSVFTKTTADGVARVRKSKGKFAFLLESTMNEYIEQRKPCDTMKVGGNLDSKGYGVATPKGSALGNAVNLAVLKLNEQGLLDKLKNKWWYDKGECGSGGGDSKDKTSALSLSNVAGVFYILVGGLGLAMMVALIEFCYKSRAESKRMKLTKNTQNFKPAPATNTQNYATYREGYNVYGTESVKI

Structure (SMILES) | target | assay | test system | conditions | IC50
Cn1c(=O)cnc2ccc(F)c(CCNC[C@H]3CN(c4cnc5c(n4)NC(=O)CO5)C(=O)O3)c21 | DNA topoisomerase 4 subunit A with ParE subunit | decatenation activity, inhibitor | – | – | 20 nM
N#Cc1c(NCc2ccccc2)ccnc1Cl | BCL6 | – | – | – | 97000 nM and 127000 nM and 110000 nM and 165000 nM and 105000 nM
CCOC(=O)CC(SP(=O)(OC)OC)C(=O)OCC (centres unmarked) | carboxylesterase (mouse) | – | PON1+/+ mouse liver homogenate | 30 min, 23 °C | 309 ± 29.2 nM
COCCn1c2nc(=O)n(-c3ccccc3)c(=O)c-2nc2ccccc21 | Genome polyprotein, NS5 methyltransferase domain (GP1, West Nile virus, UniProt Q9Q6P4) | IC50-TLC | – | – | 1600 nM
CC[C@H](O)Cn1c(=O)n(C)c2ccc(Nc3ccnc(Cl)c3C#N)cc21 | BCL6 | – | – | – | 5110 nM and 4340 nM and 4270 nM
N#Cc1cc2nc(O)c(O)nc2cc1[N+](=O)[O-] | Glutamate receptor 3 (Rattus norvegicus, UniProt P19492) | – | – | – | 1500 ± 300 nM
CCCCCCCCCC(=O)CC(=O)Nc1ccccc1 | qscR DNA-bound dimer | ligand binding, FRET displacement | – | protein 5 nM with DNA, with: fluorescent ligand 2 µM | 44900 nM
O=[N+]([O-])c1cc(NCCCCCCN2C[C@H](O)[C@@H](O)[C@H](O)[C@H]2CO)cc(-c2ccncc2)c1 | Mogs | enzyme activity, inhibitor | – | with: trisaccharide substrate | 0.5 nM
CO[C@H]1C[C@H](O[C@@H]2/C(C)=C/C[C@@H]3C[C@@H](C[C@]4(CC[C@H](C)[C@@H](C5CCCCC5)O4)O3)OC(=O)[C@@H]3C=C(C)/C(=N/O)[C@H]4OC/C(=C\C=C\[C@@H]2C)[C@]43O)O[C@@H](C)[C@@H]1O | NR1H3 | biochemical | – | – | 29100 ± 11200 nM
C[C@@H]1CC[C@H]2[C@@H](C)C(=O)O[C@@H]3O[C@@]4(C)CC[C@@H]1[C@]32OO4 | 20S proteasome (Plasmodium falciparum, UniProt A0A5K1K7U1+Q8IJT1) | chymotrypsin-like activity, inhibitor, Proteasome-Glo | P. falciparum 3D7 lysate | 48 h | > 100 nM
Cc1ccn(-c2ncc(Cl)c(Nc3ccc4c(c3)n(CCC(C)(C)O)c(=O)n4C)n2)n1 | BCL6 | – | – | – | 370 nM and 430 nM and 340 nM
C=CC(=O)N[C@H]1C=C(C)c2c(-c3cnc4ccccc4c3)c3c(N)ncnc3n2C1 | Epidermal growth factor receptor (EGFR, Homo sapiens, UniProt P00533) | – | mouse | – | 980 nM
Nc1ncnc2c1c(Oc1ccc(C(F)(F)F)cn1)nn2C1CC1 | Calmodulin-domain protein kinase 1 (CDPK1, Toxoplasma gondii, UniProt Q9BJF5) | enzyme activity, inhibitor | – | – | > 20000 nM
CCCCCCCCCCCCCCCC(=O)NS(=O)(=O)Oc1ccc(OC)cc1 | plsY | inhibitor | – | – | 60000 nM
CC1CCCN(c2ncc(Cl)c(Nc3ccc4c(c3)n(CCC(C)(C)O)c(=O)n4C)n2)C1 (centres unmarked) | BCL6 | – | – | – | 890 nM and 360 nM and 810 nM
COc1cc(C(=O)N2CC[C@@H](O)[C@@H](N)C2)cc2nc(-c3cc4ccccc4n3CC3CC3)n(C)c12 | Substance-P receptor (TACR1, Homo sapiens, UniProt P25103) | intracellular calcium, antagonist, luminescence | – | – | > 39800 nM
O=C(O)CC(F)(F)C(=O)N1N=C(c2c(-c3ccc(Cl)cc3)c3ccccc3[nH]c2=O)C[C@H]1c1ccc(Cl)cc1 | Ionotropic glutamate receptor NMDA 1/2D (GRIN2D/GRIN1, Homo sapiens, UniProt O15399+Q05586) | steady-state current, inhibitor, whole-cell patch clamp | HEK293T | with: glutamate, glycine | 41.7 nM
C[C@@H]1CN(c2cc(Nc3ccc4c(c3)n(CCC(C)(C)O)c(=O)n4C)c(Cl)cn2)C[C@H](C)O1 | BCL6 | – | – | – | 860 nM
COc1cc(Nc2ncc(F)c(Nc3ccc4c(n3)NC(=O)C(C)(C)O4)n2)cc(OC)c1OC | Caspase-10 (CASP10, Homo sapiens, UniProt Q92851) | – | – | – | > 10000 nM

Structure (SMILES) | target | assay | test system | conditions | IC50
O=S(=O)(Nc1ccc(-c2n[nH]c(=S)o2)cc1)c1ccc(C(F)(F)F)cc1 | P2X purinoceptor 7 (P2RX7, Homo sapiens, UniProt Q99572) | calcium mobilization, antagonist | MCF7 transfected with P2RX7 | with: 100 µM BzATP | 890 ± 73 nM
Cc1cc2c(C(C)C)c(O)c(O)c(C=O)c2c(O)c1-c1c(C)cc2c(C(C)C)c(O)c(O)c(C=O)c2c1O | Voltage-dependent T-type calcium channel subunit alpha-1H (CACNA1H, Homo sapiens, UniProt O95180) | calcium current, blocker, whole-cell patch clamp | human channel-expressing cells | – | 6500 ± 600 nM
Oc1c(Cl)cc(Cl)c(Cl)c1Cc1c(O)c(Cl)cc(Cl)c1Cl | Flagellar hook protein FlgE (flgE, Treponema pallidum, UniProt O07884) | – | – | – | 9370 nM
Cn1c(=O)ccc2ccc(F)c(CCNC[C@H]3CN(c4cnc5c(n4)NC(=O)CO5)C(=O)O3)c21 | DNA topoisomerase 4 subunit A with ParE subunit | decatenation activity, inhibitor | – | – | 9.6 nM
C[C@H]1CN(c2n[nH]c3nc(N[C@H]4CC[C@H](NS(=O)(=O)CCC(F)(F)F)CC4)ncc23)CCO1 | Maternal embryonic leucine zipper kinase (MELK, Homo sapiens, UniProt Q14680) | biochemical | – | – | ≥ 20000 nM
COc1ncccc1-c1cnn2ccc(N3CCN(C(=O)OC(C)C)CC3)nc12 | Beta-1 adrenergic receptor (ADRB1, Homo sapiens, UniProt P08588) | liability screen | – | – | > 30000 nM
CCCCn1c(=O)n(C)c2ccc(Nc3ccnc(Cl)c3C#N)cc21 | BCL6 | – | – | – | 5560 nM and 8010 nM
CCOP(=O)(OCC)Oc1nc(Cl)c(Cl)cc1Cl | carboxylesterase (mouse) | – | PON1+/+ mouse liver homogenate | 30 min, 23 °C | 4.3 ± 0.8 nM
O=c1c2ccccc2nc(S)n1-c1ccccc1 | collagenase | enzyme activity, inhibitor | – | with: casein substrate | 4 ± 1.41 µg/mL
Cc1nc(C)c(-c2ncc(Cl)c(Nc3ccc4c(c3)n(CCC(C)(C)O)c(=O)n4C)n2)s1 | BCL6 | – | – | – | 1720 nM and 1560 nM
CCCCCC/C=C\CCCCCCCCCC(=O)CP(=O)(O)O | plsY | inhibitor | – | – | 48000 nM
CO[C@H]1C[C@H](O[C@H]2[C@H](C)O[C@@H](O[C@@H]3/C(C)=C/C[C@@H]4C[C@@H](C[C@]5(C=C[C@H](C)[C@@H](C6CCCCC6)O5)O4)OC(=O)[C@@H]4C=C(C)[C@@H](O)[C@H]5OC/C(=C\C=C\[C@@H]3C)[C@]54O)C[C@@H]2OC)O[C@@H](C)[C@@H]1O | NR1H3 | receptor activity, inhibitor | cells | – | 2180 ± 1680 nM
O=S(=O)(F)c1ccc(S(=O)(=O)Nc2cc(F)cc(C3CC3)c2)c2c1CCCC2 | Ras-related protein Ral-A (RALA, Homo sapiens, UniProt P11233) | – | – | – | 52000 nM
CCCCCCCCCC(=O)CC(=O)N[C@H]1CCOC1=O | qscR, ligand-binding domain (Pseudomonas aeruginosa, UniProt G3XD77) | ligand binding, FRET displacement | – | ligand-binding domain 5 nM, with: fluorescent ligand 2 µM | 94.4 nM
CC(C)c1cc2c(c(O)c1O)[C@@]13CCCC(C)(C)[C@@H]1[C@H](OC3=O)[C@H]2O | Carbonic anhydrase 2 (CA2, Homo sapiens, UniProt P00918) | enzyme activity, inhibitor | – | – | 4.18 ± 0.08 nM
O=c1[nH]c2ccccc2n1C1CCN(Cc2ccc(-c3nc4cc5[nH]cnc5cc4nc3-c3ccccc3)cc2)CC1 | Nuclear receptor ROR-gamma (RORC, Homo sapiens, UniProt P51449) | reporter gene, inhibitor, GAL4 dual-luciferase reporter | HEK293T | 24 h | 2640 ± 1860 nM
CCCCCCCCCC(=O)NC1CCCC1 | qscR DNA-bound dimer | ligand binding, FRET displacement | – | protein 5 nM with DNA, with: fluorescent ligand 2 µM | 2340 nM
Cc1cc(-c2ccco2)ccc1NCc1ccc(CN2C[C@H](O)[C@@H](O)[C@H](O)[C@H]2CO)cc1 | Mogs | enzyme activity, inhibitor | – | with: trisaccharide substrate | < 1 nM
Cn1c(=O)n(CCC(C)(C)O)c2cc(Nc3ccnc(Cl)c3Cl)ccc21 | BCL6 | – | – | – | 1170 nM and 1480 nM

Excerpt of the above:
Structure (SMILES) | target | assay | test system | conditions | IC50
Cn1c(=O)ccc2ccc(F)c(CCNC[C@H]3CN(c4cnc5c(n4)NC(=O)CO5)C(=O)O3)c21 | DNA topoisomerase 4 subunit A with ParE subunit | decatenation activity, inhibitor | – | – | 9.6 nM
C[C@H]1CN(c2n[nH]c3nc(N[C@H]4CC[C@H](NS(=O)(=O)CCC(F)(F)F)CC4)ncc23)CCO1 | Maternal embryonic leucine zipper kinase (MELK, Homo sapiens, UniProt Q14680) | biochemical | – | – | ≥ 20000 nM
COc1ncccc1-c1cnn2ccc(N3CCN(C(=O)OC(C)C)CC3)nc12 | Beta-1 adrenergic receptor (ADRB1, Homo sapiens, UniProt P08588) | liability screen | – | – | > 30000 nM
CCCCn1c(=O)n(C)c2ccc(Nc3ccnc(Cl)c3C#N)cc21 | BCL6 | – | – | – | 5560 nM and 8010 nM
